{"data": "Measured values pooled from the literature", "note": "Compare with care: the assays were run in different laboratories. Several values in a cell are separate wells, animals, samples, runs or records. Numbers after ± are the reported error."}
{"Compound": "CC(C)(C)C(=O)OCOP(=O)(OCOC(=O)C(C)(C)C)C1CCCN(O)C1=O (stereo not shown)", "cell line": "SN12C", "measurement": "log GI50", "value": "-6.48 log M"}
{"Compound": "CC(C)C[C@H](NC(=O)[C@H](CC(=O)O)NC(=O)CNC(=O)[C@@H](N)CCCNC(=N)N)C(=O)N[C@@H](C)C(=O)N[C@H](C(=O)N[C@@H](CC(C)C)C(=O)N[C@@H](CCCNC(=N)N)C(=O)N[C@@H](CCC(N)=O)C(=O)N[C@@H](CC(C)C)C(=O)N[C@@H](C)C(=O)N[C@@H](CCC(N)=O)C(=O)N[C@@H](CCC(=O)O)C(=O)N[C@@H](CC(=O)O)C(=O)NCC(=O)N[C@H](C(=O)N[C@H](C(=O)NCC(=O)N[C@H](C(=O)N[C@@H](CCCNC(=N)N)C(=O)NCCOCCOCCOCCOCCOCCOCCOCCOCCOCCOCCOCCOCCC(=O)N[C@@H](CS)C(N)=O)C(C)C)C(C)C)C(C)C)[C@@H](C)O", "cell line": "Calu-3", "test": "phage binding", "scale": "reference: targeting over control phage", "measurement": "selectivity ratio", "value": "34 ± 13"}
{"Compound": "CC1CCC2C(C)C(OC(=O)CCC(=O)N3CCC(Nc4ccc(S(=O)(=O)NC(=O)c5ccc(N6CCN(CC7=C(c8ccc(Cl)cc8)CC(C)(C)CC7)CC6)cc5Oc5cnc6[nH]ccc6c5)cc4[N+](=O)[O-])CC3)OC3OC4(C)CCC1C32OO4 (stereo not shown)", "cell line": "THP-1", "test": "annexin V/PI flow cytometry, measured: annexin V-/PI-", "setting": "0.8 µM, 24 h", "measurement": "viable cells", "value": "29.5%"}
{"Compound": "O=C(C[Se]C(=O)c1cccs1)Nc1cccc(C(F)(F)F)c1", "cell line": "NCI60 leukaemia subpanel", "test": "NCI60 five-dose screen", "measurement": "CC50", "value": "11 µM"}
{"Compound": "COc1ccccc1-c1ccncc1C(=O)Nc1nnc(OCc2ccc(Cl)cc2)s1", "cell line": "RPE-1 BRCA1 WT parental", "setting": "8 µM, run 1", "scale": "reference: untreated", "measurement": "colony survival", "value": "75%"}
{"Compound": "COc1ccc(NC(=O)c2ccc3[nH]c(-c4ccc(N(C)C)cc4)nc3c2)cn1", "cell line": "HCT116", "test": "IncuCyte", "setting": "concentration not given, 28 (unit not given)", "measurement": "PI-positive cells", "value": "156 count and 197 count and 133 count"}
{"Compound": "Cc1c(Cl)cccc1Nc1ccccc1C(=O)[Se]CC(=O)Nc1cccc(C(F)(F)F)c1", "cell line": "NCI60 melanoma subpanel", "test": "cytotoxicity, inhibitor", "setting": "five-dose", "measurement": "CC50", "value": "6.08 µM"}
{"Compound": "CSCC[C@H](NC(=O)[C@H](CCC(=O)O)NC(=O)[C@H](CS)NC(=O)[C@H](Cc1ccccc1)NC(=O)[C@H](CC(N)=O)NC(=O)[C@@H]1CCCN1C(=O)[C@@H]1CCCN1C(=O)[C@H](CC(N)=O)NC(=O)[C@H](CC(C)C)NC(=O)[C@H](CCSC)NC(=O)[C@H](CC(C)C)NC(=O)[C@H](CS)NC(=O)[C@H](CCC(N)=O)NC(=O)CNC(=O)[C@H](Cc1ccc(O)cc1)NC(=O)[C@@H](NC(=O)[C@@H](NC(=O)[C@@H]1CCCN1C(=O)[C@@H](N)CS)C(C)C)[C@@H](C)O)C(=O)N[C@@H](CC(=O)O)C(=O)NCC(=O)N[C@@H](CCC(N)=O)C(=O)N[C@@H](CS)C(=O)N[C@@H](CCCCN)C(=O)O", "cell line": "RAW264.7", "test": "Western blot, measured: NF-κB over β-actin", "setting": "0.1 and 1 µg/mL, added: LPS", "measurement": "NF-κB level", "value": "decreased"}
{"Compound": "N[C@H](C(=O)N1CCCC1)C1CCN(c2nccc3c(-c4ncc(Cl)cc4Cl)cccc23)CC1", "cell line": "human neutrophils", "test": "protein citrullination, inhibitor, flow cytometry, measured: citrullinated proteins", "setting": "100 nM, added: ionomycin", "measurement": "inhibition", "value": "11.9% and 7.97% and 4.38% and 22.3%"}
{"Compound": "CC[C@H](C)[C@H](NC(=O)[C@H](C)NC(=O)CNC(=O)[C@H](Cc1ccccc1)NC(=O)[C@H](CC(N)=O)NC(=O)[C@H](CC(N)=O)NC(=O)[C@H](CO[C@@H]1O[C@H](CO)[C@@H](O)[C@H](O)[C@H]1NC(C)=O)NC(=O)[C@H](CO)NC(=O)[C@H](Cc1c[nH]cn1)NC(=O)[C@@H](NC(=O)[C@H](CC(C)C)NC(=O)[C@H](Cc1ccccc1)NC(=O)[C@H](CC(N)=O)NC(=O)[C@H](C)NC(=O)[C@@H](N)CC(C)C)C(C)C)C(=O)N[C@@H](CC(C)C)C(N)=O", "cell line": "INS-1", "test": "MTT", "setting": "10 equivalents to hIAPP, 24 h, added: hIAPP 1 µM", "measurement": "viability", "value": "78.4%"}
{"note": "Some of these lines once more:"}
{"Compound": "N[C@H](C(=O)N1CCCC1)C1CCN(c2nccc3c(-c4ncc(Cl)cc4Cl)cccc23)CC1", "cell line": "human neutrophils", "test": "protein citrullination, inhibitor, flow cytometry, measured: citrullinated proteins", "setting": "100 nM, added: ionomycin", "measurement": "inhibition", "value": "11.9% and 7.97% and 4.38% and 22.3%"}
